Published values collected from several papers.
Parts stem from different laboratories: compare values within a part only. “And” joins repeats or separate records; there may be more than shown.
Sequence of UniProt P00519 (whole entry, unmodified, looked up): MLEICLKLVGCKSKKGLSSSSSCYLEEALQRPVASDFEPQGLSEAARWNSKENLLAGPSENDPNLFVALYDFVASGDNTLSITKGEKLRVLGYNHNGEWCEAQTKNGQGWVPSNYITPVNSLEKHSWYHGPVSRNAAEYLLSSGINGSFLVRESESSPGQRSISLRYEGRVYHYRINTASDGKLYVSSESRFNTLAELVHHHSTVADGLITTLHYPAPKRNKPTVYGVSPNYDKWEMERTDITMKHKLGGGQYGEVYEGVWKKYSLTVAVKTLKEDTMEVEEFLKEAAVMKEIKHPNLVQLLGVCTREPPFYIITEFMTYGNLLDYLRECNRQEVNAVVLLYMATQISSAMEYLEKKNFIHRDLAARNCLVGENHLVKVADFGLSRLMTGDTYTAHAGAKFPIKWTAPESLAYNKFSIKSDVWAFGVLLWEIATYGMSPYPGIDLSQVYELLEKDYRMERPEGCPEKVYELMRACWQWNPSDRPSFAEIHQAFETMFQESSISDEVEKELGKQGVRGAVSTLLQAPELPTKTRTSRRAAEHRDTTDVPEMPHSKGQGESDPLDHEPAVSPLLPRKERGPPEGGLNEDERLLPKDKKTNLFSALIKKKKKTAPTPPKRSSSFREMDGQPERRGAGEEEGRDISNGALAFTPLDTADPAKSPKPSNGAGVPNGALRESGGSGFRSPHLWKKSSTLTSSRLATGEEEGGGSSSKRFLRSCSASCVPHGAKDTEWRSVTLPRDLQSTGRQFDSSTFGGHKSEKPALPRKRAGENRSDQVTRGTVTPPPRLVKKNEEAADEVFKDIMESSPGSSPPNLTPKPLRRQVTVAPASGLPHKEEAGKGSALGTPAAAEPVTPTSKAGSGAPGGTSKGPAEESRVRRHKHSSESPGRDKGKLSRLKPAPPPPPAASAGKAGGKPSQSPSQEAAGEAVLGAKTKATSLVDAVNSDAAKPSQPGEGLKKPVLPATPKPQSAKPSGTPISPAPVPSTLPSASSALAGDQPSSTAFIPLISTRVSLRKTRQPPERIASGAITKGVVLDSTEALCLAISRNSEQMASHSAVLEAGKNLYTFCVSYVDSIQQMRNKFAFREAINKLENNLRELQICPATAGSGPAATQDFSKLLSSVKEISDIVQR
Sequence of UniProt P35626 (whole entry, looked up): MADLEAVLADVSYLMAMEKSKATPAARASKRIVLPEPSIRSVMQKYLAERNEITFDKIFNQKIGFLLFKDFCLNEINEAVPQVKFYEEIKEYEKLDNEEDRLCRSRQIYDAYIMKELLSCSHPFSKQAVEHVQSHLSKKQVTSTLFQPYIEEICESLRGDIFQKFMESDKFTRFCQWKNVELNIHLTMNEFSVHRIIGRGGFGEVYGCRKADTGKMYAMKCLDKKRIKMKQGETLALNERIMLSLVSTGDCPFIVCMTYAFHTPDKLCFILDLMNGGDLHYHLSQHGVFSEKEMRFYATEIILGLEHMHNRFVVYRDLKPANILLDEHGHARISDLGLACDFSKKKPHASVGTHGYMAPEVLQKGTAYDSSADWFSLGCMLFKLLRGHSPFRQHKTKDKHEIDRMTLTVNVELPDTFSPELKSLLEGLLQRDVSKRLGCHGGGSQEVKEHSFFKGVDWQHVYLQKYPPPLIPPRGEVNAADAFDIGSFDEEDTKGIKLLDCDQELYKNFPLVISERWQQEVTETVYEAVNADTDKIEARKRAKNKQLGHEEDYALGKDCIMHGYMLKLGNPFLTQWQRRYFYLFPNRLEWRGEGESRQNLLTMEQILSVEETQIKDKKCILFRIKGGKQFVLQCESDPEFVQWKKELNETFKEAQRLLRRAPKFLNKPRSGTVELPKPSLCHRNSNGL
Sequence of UniProt O14730 (whole entry, looked up): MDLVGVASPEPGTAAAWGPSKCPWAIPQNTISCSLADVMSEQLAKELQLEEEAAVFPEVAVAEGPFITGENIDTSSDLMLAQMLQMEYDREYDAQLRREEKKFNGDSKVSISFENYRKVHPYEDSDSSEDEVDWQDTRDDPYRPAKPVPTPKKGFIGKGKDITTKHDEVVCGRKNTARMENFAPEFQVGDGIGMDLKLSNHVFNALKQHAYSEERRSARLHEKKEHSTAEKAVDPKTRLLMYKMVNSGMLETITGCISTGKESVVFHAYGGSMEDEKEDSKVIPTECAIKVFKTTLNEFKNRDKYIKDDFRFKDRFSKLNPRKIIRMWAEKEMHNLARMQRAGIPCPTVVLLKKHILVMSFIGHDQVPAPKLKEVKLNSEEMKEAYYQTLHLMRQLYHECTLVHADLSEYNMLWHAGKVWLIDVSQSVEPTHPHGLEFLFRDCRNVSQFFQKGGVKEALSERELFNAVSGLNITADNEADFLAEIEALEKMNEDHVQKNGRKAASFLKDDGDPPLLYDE
Sequence of UniProt Q8TDC3 (whole entry, looked up): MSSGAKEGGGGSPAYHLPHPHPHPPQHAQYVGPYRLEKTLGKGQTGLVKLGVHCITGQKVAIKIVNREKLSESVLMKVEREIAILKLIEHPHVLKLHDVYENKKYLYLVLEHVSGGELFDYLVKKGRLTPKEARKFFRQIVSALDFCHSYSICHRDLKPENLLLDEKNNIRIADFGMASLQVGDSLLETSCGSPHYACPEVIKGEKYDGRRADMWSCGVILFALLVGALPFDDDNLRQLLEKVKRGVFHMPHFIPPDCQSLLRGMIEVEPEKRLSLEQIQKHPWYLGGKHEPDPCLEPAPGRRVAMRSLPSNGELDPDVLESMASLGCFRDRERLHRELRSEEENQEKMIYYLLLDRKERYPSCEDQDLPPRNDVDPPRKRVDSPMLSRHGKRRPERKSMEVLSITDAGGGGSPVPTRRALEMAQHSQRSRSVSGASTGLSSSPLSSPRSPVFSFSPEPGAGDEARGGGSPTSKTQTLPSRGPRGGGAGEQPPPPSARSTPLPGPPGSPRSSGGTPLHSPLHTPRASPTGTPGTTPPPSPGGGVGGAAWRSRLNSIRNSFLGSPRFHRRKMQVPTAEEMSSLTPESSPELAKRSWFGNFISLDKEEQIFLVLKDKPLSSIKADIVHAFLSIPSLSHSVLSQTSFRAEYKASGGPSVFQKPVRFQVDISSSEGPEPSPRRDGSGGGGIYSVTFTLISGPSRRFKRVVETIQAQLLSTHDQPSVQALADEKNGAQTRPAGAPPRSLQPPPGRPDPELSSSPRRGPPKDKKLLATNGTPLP
Sequence of UniProt P15735 (whole entry, looked up): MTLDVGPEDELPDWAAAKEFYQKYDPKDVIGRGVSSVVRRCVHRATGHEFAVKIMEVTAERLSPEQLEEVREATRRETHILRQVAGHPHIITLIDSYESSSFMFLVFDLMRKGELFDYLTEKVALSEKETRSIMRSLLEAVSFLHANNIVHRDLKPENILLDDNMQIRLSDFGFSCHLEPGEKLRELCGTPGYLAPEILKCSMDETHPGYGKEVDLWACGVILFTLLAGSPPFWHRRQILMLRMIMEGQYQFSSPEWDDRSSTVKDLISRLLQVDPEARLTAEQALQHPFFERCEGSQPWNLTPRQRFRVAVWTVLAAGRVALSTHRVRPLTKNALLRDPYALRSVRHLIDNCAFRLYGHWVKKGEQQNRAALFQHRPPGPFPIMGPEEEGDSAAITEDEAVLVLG
Sequence of UniProt P52564 (whole entry, looked up): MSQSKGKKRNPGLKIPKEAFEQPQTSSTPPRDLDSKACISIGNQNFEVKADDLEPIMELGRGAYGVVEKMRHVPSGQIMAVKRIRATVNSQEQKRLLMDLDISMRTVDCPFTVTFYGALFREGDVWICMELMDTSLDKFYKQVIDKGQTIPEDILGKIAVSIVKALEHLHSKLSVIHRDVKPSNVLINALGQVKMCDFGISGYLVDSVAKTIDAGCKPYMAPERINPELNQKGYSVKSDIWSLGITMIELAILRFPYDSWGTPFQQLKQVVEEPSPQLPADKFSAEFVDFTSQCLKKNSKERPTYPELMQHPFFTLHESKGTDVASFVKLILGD

Study 1 — host: mouse; sample: microsomes or S9; concentration: 2 µM; time: 0.5 h
`O=C(c1nc2ncccn2n1)N1CCCn2cc(-c3ccccc3)nc21` has a remaining compound of 48.3%.
With `O=c1c2sccc2ncn1-c1ccc(F)c(Cl)c1` the remaining compound was 0.543%.
The remaining compound of `COCc1cc(C)nc2sc(-c3nc(N)nc(N(C)C)n3)c(N)c12` is reported as 0.172%.
For `CC(=O)c1c(NN2CCOCC2)oc(C)cc1=O`, the remaining compound was 64.3%.
For `CCC(=O)OC(COC)c1ccccc1CS(N)(=O)=O` (stereo not drawn), the remaining compound was 14.3%.
`COC(=O)c1ccc(COc2ccc(-c3nnn[nH]3)cc2)cc1` gave a remaining compound of 0.631%.

Study 2 — organism: Sarcocystis neurona; observed: parasite activity; concentration: 10 µM; time: 96 h
For `O=C(NCCN1CCOCC1)c1ccc(Cl)cc1`, activity class read “inactive”.
Under activity class, `C[C@H]1C[C@H]2[C@@H]3CCC4=CC(=O)C=C[C@]4(C)[C@@]3(F)[C@@H](O)C[C@]2(C)[C@@]1(O)C(=O)CO` is recorded as “inactive”.
`CN(C)[C@@H]1C(O)=C(C(=O)NCN2CCCC2)C(=O)[C@@]2(O)C(O)=C3C(=O)c4c(O)cccc4[C@@](C)(O)[C@H]3C[C@@H]12` — result for activity class: “inactive”.
Under activity class, `C[C@@H](O)[C@H]1C(=O)N2C(C(=O)O)=C(S[C@@H]3CN[C@H](C(=O)N(C)C)C3)[C@H](C)[C@H]12` is recorded as “inactive”.
For `CC(=O)[C@@]1(O)CC[C@H]2[C@@H]3C[C@H](C)C4=CC(=O)C=C[C@]4(C)[C@@]3(F)[C@@H](O)C[C@@]21C`, activity class read “inactive”.
`CC[C@H]1OC(=O)[C@H](C)C(=O)[C@H](C)[C@@H](O[C@@H]2O[C@H](C)C[C@H](N(C)C)[C@H]2O)[C@](C)(OC)C[C@@H](C)C(=O)[C@H](C)[C@H]2N(CCCCn3cnc(-c4cccnc4)c3)C(=O)O[C@]12C`: activity class “inactive”.

Study 3 — cell line: mouse MPNST tumor cells; method: high-content immunofluorescence imaging; item: nuclear SOX9; concentration: 10 µM; time: 12 h; notes: mean of 2 replicates; reference: DMSO control; reading: higher = more nuclear SOX9
`COc1ccc(-c2cc(=O)c3c(O)cc(O[C@@H]4O[C@H](CO[C@@H]5O[C@@H](C)[C@H](O)[C@@H](O)[C@H]5O)[C@@H](O)[C@H](O)[C@H]4O)cc3o2)cc1O` — result for “nuclear SOX9 intensity”: 96.9 % of DMSO.
For `CO[C@@H]1[C@@H](OC(N)=O)[C@@H](O)[C@H](Oc2ccc3c(O)c(NC(=O)c4ccc(O)c(CC=C(C)C)c4)c(=O)oc3c2C)OC1(C)C`, “nuclear SOX9 intensity” read 118 % of DMSO.
Under “nuclear SOX9 intensity”, `CCNC(=O)CCC/C=C\C[C@@H]1[C@@H](/C=C/[C@@H](O)CCc2ccccc2)[C@H](O)C[C@@H]1O` is recorded as 97 % of DMSO.
Under “nuclear SOX9 intensity”, `O=C(O)Cn1c(C(=O)Nc2nc(-c3ccccc3Cl)cs2)cc2ccccc21` is recorded as 114 % of DMSO.
Under “nuclear SOX9 intensity”, `N#Cc1ccc(-c2ccc(S(=O)(=O)Nc3cccc(N)n3)cc2)cc1` is recorded as 105 % of DMSO.
For `Nc1ccc(S(=O)(=O)Nc2ncccn2)cc1`, “nuclear SOX9 intensity” read 93.7 % of DMSO.
For `CC(C)(C)c1ccc(S(=O)(=O)NCc2ccc(C(=O)Nc3cccnc3)cc2)cc1`, “nuclear SOX9 intensity” read 99.8 % of DMSO.
`Clc1ccc(C(c2ccccc2Cl)C(Cl)Cl)cc1` (stereo not drawn) — result for “nuclear SOX9 intensity”: 126 % of DMSO and 109 % of DMSO.

Study 4 — observed: binding; method: competition with immobilised ligand; concentration: 1 µM
Structure (SMILES): O=C(N[C@H]1CCCCC/C=C\C2C[C@@]2(C(=O)O)NC(=O)[C@@H]2C[C@@H](Oc3ccncc3)CN2C1=O)OC1CCCC1 (stereo partly drawn)
The remaining binding was 97% (Tyrosine-protein kinase ABL1, phosphorylated (ABL1, Homo sapiens, UniProt P00519)).
It gave 94% for remaining binding (MAP2K6 (Homo sapiens, UniProt P52564)).
MYLK (Homo sapiens, UniProt Q15746) — remaining binding: 100%.
It gave 100% for remaining binding (CDK3 (Homo sapiens, UniProt Q00526)).
The remaining binding was 100% (RIOK3 (Homo sapiens, UniProt O14730)).
For Tyrosine-protein kinase ABL1, phosphorylated (ABL1, Homo sapiens, UniProt P00519, F317L): remaining binding read 100%.
For FLT3 (Homo sapiens, UniProt P36888, F691L/ITD): remaining binding read 88%.
It gave 100% for remaining binding (PHKG2 (Homo sapiens, UniProt P15735)).
It gave 100% for remaining binding (Tyrosine-protein kinase ABL1, non-phosphorylated (ABL1, Homo sapiens, UniProt P00519, F317I)).
It gave 80% for remaining binding (BRSK1 (Homo sapiens, UniProt Q8TDC3)).
The remaining binding was 99% (CAMK2B (Homo sapiens, UniProt Q13554)).
For GRK3 (Homo sapiens, UniProt P35626): remaining binding read 100%.
For ULK2 (Homo sapiens, UniProt Q8IYT8): remaining binding read 100%.

For quick reference, copied from above (study 4):
It gave 100% for remaining binding (PHKG2 (Homo sapiens, UniProt P15735)).
The remaining binding was 99% (CAMK2B (Homo sapiens, UniProt Q13554)).
